# Assay results gathered from unrelated publications.
# Numbered parts are unrelated; each lists some results of a single study.

# Set 1
# Target: RING finger protein unkempt homolog, zinc fingers 1-6, GST-SBP tag (UNK, Homo sapiens, UniProt Q9C0B0, residues 30-357)
# Chain of UniProt Q9C0B0 (30-357, looked up): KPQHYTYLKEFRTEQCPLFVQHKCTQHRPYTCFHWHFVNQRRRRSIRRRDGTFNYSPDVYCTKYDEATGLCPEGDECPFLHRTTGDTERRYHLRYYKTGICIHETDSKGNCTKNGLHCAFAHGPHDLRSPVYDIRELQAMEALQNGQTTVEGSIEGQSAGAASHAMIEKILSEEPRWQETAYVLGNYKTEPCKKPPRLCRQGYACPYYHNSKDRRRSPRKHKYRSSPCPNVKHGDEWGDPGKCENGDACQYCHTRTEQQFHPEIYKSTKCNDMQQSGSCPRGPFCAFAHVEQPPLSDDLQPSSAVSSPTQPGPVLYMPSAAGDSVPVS
# Technique: RNA Bind-n-Seq
# Form: RNA
# Sample: in vitro
# Tested at: not given
# Setting: RNA with constant flanks, ends assumed
# Baseline: input RNA pool
# Reading: higher = stronger binding
Strand,bound/input enrichment [ratio]
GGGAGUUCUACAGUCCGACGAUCUUGCUCUCUAUUUGUUCCCUUUUGACAGAUUGCAACCCUGCGGAUCCUCUGGUCGGAAGCACCGCCACUCAGUAUUUGACCAACAGAGCAGAACAUGACAGGAUAGCCAGACAGUGGACCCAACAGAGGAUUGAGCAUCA,0.194
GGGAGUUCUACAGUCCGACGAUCAAGUCAGCAGCACAAGCCAGACGCCGGCUGAUGAGUGGAAAAGUAAAAGUGUGGGGAAAUGCCGUUACAGUUGAAUGGGCUGACCCUGUGGAAGAACCAGAUCCAGAAGUCAUGGCUAAGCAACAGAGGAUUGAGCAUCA,0.225
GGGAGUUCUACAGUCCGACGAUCUCGGAGUUUGAUCCAUUUUUUAGUCUCUUUGCAUUCACCAACAAAAUUACUUCUGUGCACCGCCGAAUCAUUUGGUCUUGUGACUGGAGUCCUGAUAACAAGUACUUCUUCACUGGAAGUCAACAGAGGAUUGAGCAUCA,1.11
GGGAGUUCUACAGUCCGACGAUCCAGAUCCAUAGGGAUUUGAAAGCUGGAAAUAUUCUUCUGGGUGAGGAUGGCUCAGUACAAACCGCAGAUUUUGGAGUAAGCGCAUUCUUAGCCACAGGGGGUGAUGUUACACGGAAUAAACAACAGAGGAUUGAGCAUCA,0.232
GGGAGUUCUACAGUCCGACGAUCGCAUGUUCUUAUGGACACUAUGAAGUUGCAGAACUUCUUGUCAAGCAUGGAGCAGCCGUCAAUGUCGCUGACUUGUGGAAGUUCACACCUUUACAUGAAGCUGCAGCAAAAGGAAAAUAUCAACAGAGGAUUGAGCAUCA,0.154
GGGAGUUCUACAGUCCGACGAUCCAGGGUGGGACCCGGGACCCGCGGCUCAGUGGCCCGCUAGCCACGUCAGCCAAGCCACUUCCGGUCCAUUUUUUAAUUUUAACAGUGCUCUUCCAUCUUGUGCAUAAGCCUGAGAUUUGGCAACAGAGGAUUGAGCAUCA,0.782
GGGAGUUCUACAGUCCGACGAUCUAUUGUACCUCUACUCUGCGUCACUUCUUGCCUCUGUUAGAAAAAAGUCAAGGAGAAGAUGCCGAAGAUGACCACAGAGCAGAACUGCUAAAACAGCUGGGAGACUACAGGUUCUCUGGACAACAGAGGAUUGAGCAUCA,0.246
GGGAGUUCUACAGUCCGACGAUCAUCGCUGUUGGAUCCAUCUCCUUCCUUCUGGGAGUUGUACUGCUAGUAAUUAAUCAUAAAUACCGAAACAGUAGUAAUACAGCUGACAUUACCAUUUAAUUUUAUAUUAUGAAAGCAAAUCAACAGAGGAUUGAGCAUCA,0.608

# Set 2
# Target: RNA binding protein fox-1 homolog 2, RRM domain, GST-SBP tag (RBFOX2, Homo sapiens, UniProt O43251-10, residues 100-194)
# Technique: RNA Bind-n-Seq
# Form: RNA
# Sample: in vitro
# Tested at: 365 nM
# Setting: natural RNA segment, single round, ends assumed
# Baseline: no-protein control
# Reading: higher = stronger binding
# Target sequence (chain): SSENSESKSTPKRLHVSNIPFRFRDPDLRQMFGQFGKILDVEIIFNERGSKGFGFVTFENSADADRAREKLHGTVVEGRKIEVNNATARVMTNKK
Strand,RBNS enrichment (R)
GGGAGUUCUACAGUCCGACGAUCCCUUCCCAGUGUGGGAUCAGGCUCUGUGCCACUGCCGGGGUCUGCAGGGUGUUAGCAAAGUUUUCCCAGUUAGUAGUGCCAGUUCUAGGCUGAAUGGGAGAGUCCUCCACUGGAAUUCUCGGGUGCCAA,0.924
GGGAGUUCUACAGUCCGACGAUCGCUUGAGUCGGGGACAUGUUAACUUCGGAAAGAAGCCCCCGUCCCUGCCAUCCCAUAGAUUCUGAAGGGCUCCUCUCCUCCGGUCACGCUGACCAACUGCCAAGCUCGCUUGGAAUUCUCGGGUGCCAA,0.258
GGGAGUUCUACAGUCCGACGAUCGGUCAAUAGGGGAGGGUAGAUUAGCUGCUCCAGAAUUCAAUAAAGUGUAAUAUUUCUAACGGUGACUUUGACCUAUUCUGUAGUACAACUGUAAUAGCUAUUGGUCUUCAUGGAAUUCUCGGGUGCCAA,0.69
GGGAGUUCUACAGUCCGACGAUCGCAGCAGACAGCUCCGCCCAUCCUAGGACUCCCCCAAAGGAGCAACUGUAAUGUGGGACUAACAUGGAUGUGAUGUCUUAUUUAAAAAGAAAUCAGGAUAAUUAGUAACAUGGAAUUCUCGGGUGCCAA,0.438
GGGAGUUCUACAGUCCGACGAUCGGAUUGUUUCCGUUUUUGUUUGUUUUUUCUAAUAUUUGGUACUUCCCAGAAUGGUGUAAAUACUUCUUUUCAAUGUUGUGACCAAGUAUUGUCACUCAGCCAACAACUUUUGGAAUUCUCGGGUGCCAA,0.424
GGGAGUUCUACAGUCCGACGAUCAGGGGGGCAACAUGAAGGAGGUGUUCACCCGCUUCUGCACCGGCCUCACCCAGAUUGAAACUCUCUUCAAGUCUAAGGACUAUGAGUUCAUGUGGAACCCUCACCUGGGCUGGAAUUCUCGGGUGCCAA,0.177
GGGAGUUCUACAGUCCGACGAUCCAGUCAGUACAAAUGGAAAAGGUCCCACACUGGAACUGGCCGGAACUGGAAGCAGGGGAGGUACGAGAGAACUUUUACCCUGUGGUCCUCAACCUGAGACCAAUAUGCCAUGGAAUUCUCGGGUGCCAA,0.468
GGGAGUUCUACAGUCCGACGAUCGUGUCCUGGCCAGCCCCCAAAUGGCAUUCUAGUGCACAAAUCAUAGGAUGAGAGUUAUACUCCUGUUGUCAAGGGAGUAUUGUGUGGUAUGUUCGGGGCAUAUUGAACAAUGGAAUUCUCGGGUGCCAA,1.52

# Set 3
# Target: Prothrombin, mature alpha-thrombin (F2, Homo sapiens, UniProt P00734)
# Technique: aptamer microarray, sandwich
# Form: DNA with 2'F-ANA
# Sample: in vitro
# Tested at: 200 nM
# Setting: whole 15-mer aptamer, many near background
# With: Cy3 exosite-II aptamer, 400 nM
# Reading: higher = stronger binding
# Strand: GGTTGGTGTGGTTGG
Modification,mean fluorescence intensity [a.u.]
2'F-ANA at 1 3 5 9 10 11 12 14 15,175
2'F-ANA at 1 3 8 9 11 13 14,89.4
2'F-ANA at 1 2 3 4 5 6 7 11 15,51.7
2'F-ANA at 1 6 7 8 9 11 12 15,290
2'F-ANA at 2 3 4 5 6 7 8 10 12 14 15,52.3
2'F-ANA at 1 2 3 6,217
2'F-ANA at 1 2 6 9 11 12,226
2'F-ANA at 2 3 5 6 7 10 11 12 14,47
2'F-ANA at 1 2 4 5 9 13 14,46.4
2'F-ANA at 3 4 7 8 10 11 15,295
2'F-ANA at 1 2 4 8 12 13 14,125
2'F-ANA at 1 3 4 5 12 13 14,43.3
2'F-ANA at 2 3 4 5 6 7 8 10 14 15,65.9
2'F-ANA at 3 4 6 9 10 13 14 15,164
2'F-ANA at 3 5 6 12 15,249
2'F-ANA at 2 4 5 6 10 12 13 15,55.7
2'F-ANA at 2 5 6 8 10 12,54.8
2'F-ANA at 3 5 8 10 12 13 15,61.8
2'F-ANA at 1 3 4 5 6 10 12 13 14 15,48.7
2'F-ANA at 2 4 6 8 9 10 11 12 13,79.4
2'F-ANA at 4 8 9 12 15,625
2'F-ANA at 2 6 7 10 13,106
2'F-ANA at 4 6 10 11 14,57
2'F-ANA at 1 2 4 5 7 9 10,46.4
2'F-ANA at 1 3 4 6 7 9 10 12 13,71.7

# Set 4
# Target: Interferon regulatory factor 7, full length, phosphomimetic (IRF7, Homo sapiens, UniProt Q92985, residues 1-503, S101K/S471D/S472D/S475D/S476D/S477D/S483D/S484D/S487D)
# Chain of UniProt Q92985 (whole entry, unmodified, looked up): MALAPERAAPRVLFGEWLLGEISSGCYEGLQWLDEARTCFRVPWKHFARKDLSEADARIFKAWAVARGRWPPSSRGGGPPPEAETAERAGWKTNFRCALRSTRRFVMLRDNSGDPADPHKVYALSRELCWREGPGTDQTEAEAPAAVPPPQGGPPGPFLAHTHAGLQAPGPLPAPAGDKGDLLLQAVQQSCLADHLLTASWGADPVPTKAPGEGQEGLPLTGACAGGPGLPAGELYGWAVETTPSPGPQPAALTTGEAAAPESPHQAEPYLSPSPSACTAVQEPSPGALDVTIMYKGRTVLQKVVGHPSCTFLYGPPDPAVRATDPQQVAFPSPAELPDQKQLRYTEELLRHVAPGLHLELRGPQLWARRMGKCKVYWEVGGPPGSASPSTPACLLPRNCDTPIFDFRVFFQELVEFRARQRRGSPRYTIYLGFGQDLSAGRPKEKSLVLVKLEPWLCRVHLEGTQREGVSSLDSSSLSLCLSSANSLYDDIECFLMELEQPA
# Technique: protein-binding microarray
# Form: double-stranded DNA, one strand shown
# Sample: in vitro
# Tested at: 250 nM
# Setting: 60-bp whole probe
# With: salmon DNA 0.4 mg/ml
# Baseline: random background probes
# Reading: higher = stronger binding
# All sequences stand within: GCCTAGCAC … GTCTTGATTCGCTTGACGCTGCTG
Strand,log fluorescence [z-score]
TCACCTATCAGTTTAATACTGTGCTAG,0.264
GACGTTATCAGTATCGAGACGTGCTAG,0.272
TTAGGTATCGGTCTCGGTTGGTGCTAG,2.6
TCATTTCTGTGTCACAGACTGTGCTAG,1.67
ATATGTAAGATATCCATATGGTGCTAG,0.128
TTAGGTTTCCGTTTCCTTTAGTGCTAG,9.38
GACGATATCAGACTGGAGATGTGCTAG,-0.221
GAGGATTCCAGTTTCGAGACGTGCTAG,5.91
GACGGTTTCCTTCTCCTGTCGTGCTAG,3.18
ACAGATGAGGAACCAAGGCCGTGCTAG,-0.16
GACGATATTGGGACTGGAGACGTGCTA,-0.206
GACGATCTCAGTTTCGAGAGGTGCTAG,1.87
TTAGGACTGGCACTGGGTTAGTGCTAG,-0.472
TTAGGCCTGGACACTGGGTTAGTGCTA,-0.697
TTAGGACTGGGCACTGGGTTAGTGCTA,-0.852
CCCAGACTTGATTTTGGTCTGTGCTAG,-0.0434
TTAGGATTGGACTATCGGTTAGTGCTA,-0.277
CCCATTCTCAGCCCTGCGCATGTGCTA,0.607
GGAGTGGGAAGCTTCGCTCCGTGCTAG,-0.568
